Measured values from different studies.
Every numbered part comes from another study and shows a few of its results, in no order. Changes are numbered by the printed parent chain.

Study 1 — method: RNA Bind-n-Seq; molecule type: RNA; medium: in vitro; tested at: 20 nM; notes: 6-mer, flanks averaged, single round; together with: 150 mM KCl; baseline: input library; reading: higher = stronger binding
Target: TAR DNA-binding protein 43, full length, His tag (TARDBP, Homo sapiens, UniProt Q13148, residues 1-414)
`CAUUUG`: “6-mer enrichment (R)” 0.651.
Under “6-mer enrichment (R)”, `GUCGUU` is recorded as 0.716.
For `CGUUUC`, “6-mer enrichment (R)” read 0.578.
`GUGUGG`: “6-mer enrichment (R)” 3.55.
Under “6-mer enrichment (R)”, `AAACGG` is recorded as 0.938.
`GGGGAA` — result for “6-mer enrichment (R)”: 4.29.
Under “6-mer enrichment (R)”, `AUAGAC` is recorded as 0.637.
For `AACCCU`, “6-mer enrichment (R)” read 0.614.

Study 2 — method: RNA Bind-n-Seq; molecule type: RNA; medium: in vitro; tested at: not given; notes: 4-mer, random 30-nt RNA, single round; together with: RocA, ADP, phosphate; baseline: input library; reading: higher = stronger binding
Target: ATP-dependent RNA helicase DDX3X, helicase core (DDX3X, Homo sapiens, UniProt O00571, residues 132-607)
Sequence of UniProt O00571 (132-607, looked up): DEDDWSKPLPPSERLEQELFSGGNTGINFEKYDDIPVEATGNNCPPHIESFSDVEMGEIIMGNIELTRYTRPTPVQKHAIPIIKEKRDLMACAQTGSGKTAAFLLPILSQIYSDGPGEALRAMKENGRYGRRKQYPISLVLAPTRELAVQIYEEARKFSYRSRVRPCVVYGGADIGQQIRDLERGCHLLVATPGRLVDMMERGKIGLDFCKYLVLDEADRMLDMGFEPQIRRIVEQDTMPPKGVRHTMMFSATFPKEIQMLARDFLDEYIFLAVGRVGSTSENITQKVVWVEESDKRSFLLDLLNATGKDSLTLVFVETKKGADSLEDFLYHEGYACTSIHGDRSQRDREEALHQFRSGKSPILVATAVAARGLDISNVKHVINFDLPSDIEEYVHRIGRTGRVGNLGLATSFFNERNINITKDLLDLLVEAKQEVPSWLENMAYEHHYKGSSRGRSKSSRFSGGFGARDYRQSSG
`UCGU` gave a 4-mer enrichment of 1.01 fold.
With `AGUC` the 4-mer enrichment was 1.09 fold.
`GUCG` has a 4-mer enrichment of 1.39 fold.
The 4-mer enrichment of `UCCG` is reported as 0.793 fold.
With `CAGU` the 4-mer enrichment was 0.782 fold.
`CUCA` has a 4-mer enrichment of 0.614 fold.
For `ACCU`, the 4-mer enrichment was 0.663 fold.
With `UGCU` the 4-mer enrichment was 0.681 fold.

Study 3 — method: protein binding microarray; molecule type: double-stranded DNA, one strand shown; medium: in vitro; tested at: not given; baseline: not given; reading: higher = stronger binding
Target: Histone acetyltransferase KAT6A, winged helix 2, GST fusion (KAT6A, Homo sapiens, UniProt Q92794, residues 85-181)
Notes: 8-mer, flanks averaged, mean of 2 arrays, mostly near background
Target sequence (chain): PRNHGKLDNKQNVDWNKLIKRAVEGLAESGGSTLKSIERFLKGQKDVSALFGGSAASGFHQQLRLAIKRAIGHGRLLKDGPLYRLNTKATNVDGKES
The E-score of `GCCCGTGA` is reported as -0.0413.
For `CAGAGGAG`, the E-score was 0.0436.
With `ACCTTCAA` the E-score was 0.0291.
For `CCATGGTC`, the E-score was -0.0895.
With `GAGTCAAA` the E-score was 0.0146.
`ATCTCCCC` gave an E-score of -0.138.
`TTAACGAA` gave an E-score of 0.134.
`GCTCCCAA` has an E-score of -0.0465.

Further values, each from its own experiment
Parent: viral docking peptide; YKVKRRLVFGADD; partner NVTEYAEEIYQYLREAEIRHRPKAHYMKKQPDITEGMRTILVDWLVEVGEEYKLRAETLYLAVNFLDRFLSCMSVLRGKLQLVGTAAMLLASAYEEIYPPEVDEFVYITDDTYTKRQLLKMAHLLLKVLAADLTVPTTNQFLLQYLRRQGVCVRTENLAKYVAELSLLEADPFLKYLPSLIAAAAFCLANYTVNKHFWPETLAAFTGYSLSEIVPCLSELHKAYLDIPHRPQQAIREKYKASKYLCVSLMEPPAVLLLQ
`YKVYRRLVFGADD [K4Y]`: “normalised enrichment score” 0.671 (CCNA1, cyclin fold, Cln2 fusion (human); yeast growth competition, sequencing; yeast; strong parent motif; baseline: not given, higher = stronger binding).

Repeated from above (study 3):
For `CCATGGTC`, the E-score was -0.0895.
For `CAGAGGAG`, the E-score was 0.0436.
